# Assay results from different studies.
# ± gives the spread as reported.
Structure (SMILES),target or system,assay,system,conditions,scale,quantity,result
COCO[C@H]1[C@H](O)[C@@H](N)[C@@H](O[C@H]2[C@H](O[C@@H]3O[C@H](CO)[C@@H](O[C@H]4O[C@@H](CN)[C@@H](O)[C@H](O)[C@H]4N)[C@H]3O)[C@@H](O)[C@H](N)C[C@@H]2N)O[C@@H]1CO,Mycobacterium smegmatis ribosome A1408G,"translation, cell-free luciferase synthesis",,,,IC50,4.48 ± 0.32 µg/mL
COC(=O)C1=CO[C@@H](OC(C)=O)[C@@H]2C(Cn3cc(CCN4C(=O)c5ccccc5C4=O)nn3)=CC[C@H]12,SK-N-SH,"neuroprotection, MTT",,"0.15 µM, 24 h, with: 250 µM H2O2",,viability,54.9 ± 2.7%
NC[C@@H]1O[C@H](O[C@H]2[C@@H](O)[C@H](O[C@@H]3[C@@H](O)[C@H](N)C[C@H](N)[C@H]3O[C@H]3O[C@@H]4COCO[C@H]4[C@H](O)[C@H]3N)O[C@@H]2CO)[C@H](N)[C@@H](O)[C@@H]1O,Mycobacterium smegmatis ribosome A1408G,"translation, cell-free luciferase synthesis",,,,IC50,32.6 ± 9.13 µg/mL
COC(=O)C1=CO[C@@H](OC(C)=O)[C@@H]2C(Cn3cc(CCCO)nn3)=CC[C@H]12,SK-N-SH,"neuroprotection, MTT",,"0.15 µM, 24 h, with: 250 µM H2O2",,viability,72.7 ± 0.4%
O=C1CC(=O)N(c2ccccc2)c2cc(Cl)ccc2N1,,"mechanical hyperalgesia, electronic von Frey","GABAA α1 H→R mutant mouse, CCI",oral,,ED50 antihyperalgesia,3.1 ± 0.9 mg/kg
C[C@H](NC(=O)[C@H](CCC(N)=O)NC(=O)[C@H](CCCCN)NC(=O)[C@H](C)NC(=O)[C@@H]1CCCN1C(=O)[C@H](C)NC(=O)[C@H](CCCCN)NC(=O)[C@H](CCC(N)=O)NC(=O)[C@H](C)NC(=O)[C@H](CCCCN)NC(=O)[C@H](CCC(N)=O)NC(=O)[C@@H]1CCCN1C(=O)[C@H](CCC(N)=O)NC(=O)[C@H](CCCCN)NC(=O)[C@H](C)NC(=O)[C@H](CCC(N)=O)NC(=O)[C@H](CCCCN)NC(=O)[C@H](C)NC(=O)[C@@H]1CCCN1C(=O)[C@H](C)NC(=O)[C@H](CCCCN)NC(=O)[C@H](CCC(N)=O)NC(=O)[C@H](C)NC(=O)[C@H](CCCCN)NC(=O)[C@H](CO)NC(=O)[C@H](Cc1ccc(O)cc1)NC(=O)CNC(=O)CNC(=O)CN)C(=O)N[C@@H](CCCCN)C(=O)N[C@@H](CCC(N)=O)C(=O)O,,,human IAPP fibrils,"1 h, room temperature",baseline: 1 M NaCl over PBS,binding ratio,0.07
CC(C)CC(O)(CC(C)C)c1cn(C(=O)N2CCCC2)nn1,mouse T-cells,"SILAC proteomics, refers to: S100A4",,"1 nM, 6 h, unit not given",baseline: DMSO,protein level,1.01 ± 0.12
C[C@@](O)(C(F)F)[C@H](NC(=O)c1ccc(C#CC#CC2CC2)cc1)C(=O)NO,Citrobacter freundii,agar dilution,ESBL and carbapenemase producers,,,MIC50,0.032 µg/mL
CSC(=NNC(=O)c1ccc([N+](=O)[O-])cc1)SC,Mycobacterium,,Phlei,,,MIC,100 µg/mL
CCCCCCCCC(=O)NCc1ccc(O)c(OC)c1,mAb 6-AT6,"antibody binding, indirect competitive ELISA",,with: coating antigen 2-OVA,,IC50,> 4 µg/mL
COC(=O)C1=CO[C@@H](OC(C)=O)[C@@H]2C(Cn3cc(CCO[Si](c4ccccc4)(c4ccccc4)C(C)(C)C)nn3)=CC[C@H]12,SK-N-SH,"neuroprotection, MTT",,"0.075 µM, 24 h, with: 250 µM H2O2",,viability,49.6 ± 0.6%
NC(=O)OC[C@H](N)Cc1ccccc1,,microdialysis,"rat, nucleus accumbens","oral, 100 mg/kg, 1.5 h",baseline: basal,AUC of extracellular dopamine,123%
COC(=O)C1=CO[C@@H](OC(C)=O)[C@@H]2C(Cn3cc(CCCN4C(=O)c5ccccc5C4=O)nn3)=CC[C@H]12,SK-N-SH,"neuroprotection, MTT",,"0.6 µM, 24 h, with: 250 µM H2O2",,viability,66.1 ± 0.8%
NC[C@@H]1O[C@H](O[C@H]2[C@@H](O)[C@H](O[C@@H]3[C@@H](O)[C@H](N)C[C@H](N)[C@H]3O[C@H]3O[C@H](CO)[C@@H](OCCO)[C@H](O)[C@H]3N)O[C@@H]2CO)[C@H](N)[C@@H](O)[C@@H]1O,Mycobacterium smegmatis ribosome A1408G,"translation, cell-free luciferase synthesis",,,,IC50,1.93 ± 0.38 µg/mL
COC(=O)C1=CO[C@@H](OC(C)=O)[C@@H]2C(Cn3cc(C4(O)CCCC4)nn3)=CC[C@H]12,SK-N-SH,"neuroprotection, MTT",,"0.3 µM, 24 h, with: 250 µM H2O2",,viability,60.2 ± 1.2%
CN[C@@H]1[C@H](O)[C@H](NC)[C@H]2O[C@]3(O)[C@H](O[C@@H]2[C@H]1O)O[C@H](C)C[C@H]3NC(=O)Cc1ccc(O)cn1,Mycolicibacterium smegmatis ribosome,cell-free translation,,,,IC50,1.51 ± 0.44 µM

# A few entries again:
Structure (SMILES),target or system,assay,system,conditions,scale,quantity,result
COC(=O)C1=CO[C@@H](OC(C)=O)[C@@H]2C(Cn3cc(C4(O)CCCC4)nn3)=CC[C@H]12,SK-N-SH,"neuroprotection, MTT",,"0.3 µM, 24 h, with: 250 µM H2O2",,viability,60.2 ± 1.2%
CN[C@@H]1[C@H](O)[C@H](NC)[C@H]2O[C@]3(O)[C@H](O[C@@H]2[C@H]1O)O[C@H](C)C[C@H]3NC(=O)Cc1ccc(O)cn1,Mycolicibacterium smegmatis ribosome,cell-free translation,,,,IC50,1.51 ± 0.44 µM
